Measured values from different studies.
Lines come from different studies, so protocols differ. Numbers after ± are the reported error. In brackets after ≈: the same amount, converted by molar mass.

CC(C)[C@H](NC(=O)CNC(=O)[C@H](CCC(N)=O)NC(=O)[C@H](C)N)C(=O)O gave a clearance of 683 mL/min/kg (LC-MS/MS; human, male, plasma; intravenous, 10 mg/kg three times daily, day 2, first dose, 10 min infusion, geometric mean).
CCCC[C@H](NC(=O)CNC(=O)CNC(=O)CN1CCN(CC(=O)O)CCN(CC(=O)O)CCN(CC(=O)O)CC1)C(=O)N[C@H]1CC(=O)NCCCC[C@@H](C(N)=O)NC(=O)[C@H](Cc2c[nH]c3ccccc23)NC(=O)[C@H](CCCNC(=N)N)NC(=O)[C@@H](Cc2ccccc2)NC(=O)[C@H](Cc2c[nH]cn2)NC1=O [copper-64 labelled] has an uptake ratio of 1.32 (female C57 mouse, B16/F1 melanoma; intravenous, 0.037 MBq, 2 h; baseline: tumour over lung).
C=C(c1ccc(C(=O)O)c(F)c1)c1cc2c(cc1C)C(C)(C)C=CC2(C)C gave a blood triglycerides of 340 ± 182 mg/dL (Sprague-Dawley rat, male; oral, 100 mg/kg, 9 h, sesame oil vehicle).
With CC(C)[C@H](NC(=O)[C@@H]1CCCN1C(=O)[C@H](CCCNC(=N)N)NC(=O)[C@H](CS)NC(=O)[C@H](Cc1c[nH]c2ccccc12)NC(=O)[C@H](CCCNC(=N)N)NC(=O)[C@@H](Cc1ccccc1)NC(=O)[C@H](Cc1c[nH]cn1)NC(=O)[C@H](CCC(=O)O)NC(=O)[C@H](CS)NC(=O)[C@H](CS)NC(=O)[C@@H]1CC(=O)N[C@@H](CCCNC(=N)N)C(=O)NCC(=O)N[C@@H](CC(=O)O)C(=O)N[C@H](Cc2ccc(O)cc2)C(=O)N1)C(N)=O [technetium-99m labelled] the urinary excretion was 84.1 ± 1.64% (female mice, B16/F1 melanoma, urine; intravenous, dose not given, 2 h, together with: 10 µg NDP-MSH co-injected).
The uptake of O=[11C](OC(C(F)(F)F)C(F)(F)F)N1CCC(CNS(=O)(=O)c2ccc(Cl)cc2)CC1 is reported as 0.93 SUV (PET; rhesus monkey, male, occipital cortex; iv, 3.71 mCi).
O=C(NCCCN(CCCCN(CCCNC(=O)c1cccc(=O)n1[O-])C(=O)c1cccc(=O)n1[O-])C(=O)c1cccc(=O)n1[O-])c1cccc(=O)n1[O-].[89Zr+4] has an intact complex of 89.8 ± 5.4% (radio-TLC; PBS; 1 d, pH 7.4, 37 °C, together with: Fe^3+ 10-fold excess).
CN(O)C(=O)CCC(=O)NCCCN(CCCCN(CCCNC(=O)CCC(=O)N(C)O)C(=O)CCC(=O)N(C)O)C(=O)CCC(=O)N(C)O.[89Zr]: “intact compound remaining” 62% (aqueous solution; 7 d, pH 7.2, 37 °C, transmetalation, together with: FeCl3 100-fold excess).
CC[C@H](C)[C@@H]1NC(=O)[C@H]([C@@H](C)O)NC(=O)[C@H](Cc2ccc(O)cc2)NC(=O)[C@H](CCCNC(=N)N)NC(=O)[C@@H]2CCCN2C(=O)[C@H]2CCCN2C(=O)[C@H]([C@@H](C)O)NC(=O)[C@H](C(C)C)NC(=O)[C@H](C(C)C)NC(=O)[C@H](CCCCN)NC(=O)[C@H](CO)NC(=O)[C@@H](CCC(N)=O)NC(=O)[C@H](CO)NC(=O)[C@H](Cc2ccc(O)cc2)NC(=O)[C@H](CO)NC(=O)[C@H](Cc2ccc(O)cc2)NC(=O)[C@@H]2CCCN2C(=O)[C@H](CO)NC(=O)[C@H](CC(C)C)NC(=O)[C@H](CC(C)C)NC(=O)[C@H](C)NC(=O)[C@H](C)NC1=O: “apparent molecular weight” ≥ 25 kDa (self-assembled oligomers, PICUP cross-linking and SDS-PAGE; PBS; 36 µM, 1 h, 37 °C).
For NS(=O)(=O)c1ccc(N2N=C(C(F)(F)F)CC2c2ccc(F)cc2F)cc1 (centres unmarked), the ka was 0.22 h⁻¹ (population PK model; Beagle dog; bootstrap median).
For Cn1c(=O)oc2ccc(-c3ccc(CC(C#N)NC(=O)C4CNCCCO4)c(F)c3)cc21 (centres unmarked), “subjects with adverse event” read 0% (refers to: blood triglycerides increased; human; 15 mg, treatment-related, single dose, fasted).
O=C([O-])CN1CCN(CC(=O)[O-])CCN(CC(=O)NCC2CCC(C(=O)NC(Cc3ccc4ccccc4c3)C(=O)NCCCCC(NC(=O)NC(CCC(=O)O)C(=O)O)C(=O)O)CC2)CCN(CC(=O)[O-])CC1.[44Sc+3] (centres unmarked) has an absorbed dose of 0.354 mSv/MBq (PET/CT, OLINDA/EXM; human patients, kidneys; mean of patients).
For CN1CCC=C(C(=O)O)C1, “metabolite formation ratio” read ~12 fold (human liver microsomes; 90 min, pH 7.4; baseline: liver microsomes over liver cytosol).
C#CCOc1ccc(/C=C2\SC(=O)N(CC(=O)NCc3ccccc3)C2=O)cc1: “Kirkwood-Buff integral G2,3” -411 cm³/mol (inverse Kirkwood-Buff integrals; binary solvent mixture; 298.15 K, mole fraction x1 0.25).
For O=C(Nc1ccc(-c2noc(C3CC3)n2)c(Cl)c1)c1cccs1, the thermodynamic solubility was 130 ± 19 µg/mL (≈ 376 µM) (sodium acetate buffer; 24 h, pH 4.0, room temperature).
For CC(=O)[CH](C(C)=O)[Pt-2]1([S+](C)C)[O]C(C)=CC(C)=[O+]1 (centres unmarked), the creatinine was 0.42 ± 0.03 mg/dL (rat, blood; intravenous, 10 mg/kg, single dose).
Cc1ccc(OCC(=O)O)cc1 has an AUC(0-last) ratio of 3480 (Sprague-Dawley rat, male, plasma; oral gavage, 10 mg/kg of parent drug; baseline: compound over parent drug).
N=C(N)NCCC[C@@H]1NC(=O)[C@H](Cc2c[nH]c3ccccc23)NC(=O)[C@@H](CC2CCCCC2)NC(=O)[C@@H]2CCCN2C(=O)[C@@H](NC(=O)CCc2ccccc2)CCCNC1=O: “apparent total clearance (CL/F)” 2.56 ng/(min·ng/g) (C57BL/6J mice, brain; intravenous, 1 mg/kg, two-compartment model).
For O=C(OCc1ccc(F)cc1)N(Cc1cccc(CN2CCCCC2)c1)[c-]1cccc1.[Fe+2].c1cc[cH-]c1, the E1/2 was -35 mV (cyclic and differential pulse voltammetry; acetonitrile; 23 °C; baseline: ferrocene/ferrocenium).
O=C(Nc1nccs1)C(c1cc(F)ccc1O)N1Cc2ccccc2C1=O (centres unmarked) gave a recovery of 96 ± 4.3% (mouse plasma; 1500 ng/mL, 24 h, room temperature, short-term stability, high QC).
Under “metabolite peak area”, COC[C@@H](CC(C)C)NC(=O)c1ccc(CO)c(CO)c1 is recorded as 0.4% (LC-MS; human liver microsomes; 10 µM of parent drug, 20 min, pH 7.4, together with: NADPH; baseline: parent drug at time zero).
COCCOCCOCCOCCC(=O)NCc1cc(CNC(=O)CCOCCOCCOCCOC)cc(-c2cc3cc4nc(c(-c5ccc(CCC(=O)O)cc5)c5[nH]c(cc6nc(c(OC)c2[nH]3)CC6(C)C)cc5-c2cc(CNC(=O)CCOCCOCCOCCOC)cc(CNC(=O)CCOCCOCCOCCOC)c2)CC4(C)C)c1 — result for “intersystem crossing yield”: 0.43 (DMF; room temperature).
With Oc1c(Br)cc(Br)c2nc3cc(SC(F)(F)F)ccc3nc12 the hemolysis was ≤ 1% (human red blood cells; 200 µM, 1 h, pH 7.2, 37 °C).
CCC[C@]1(NC(=O)c2sccc2Cl)C[C@H](O)C1 gave a kinetic solubility of ≥ 1000 µM (nephelometry; HBSS with 1% DMSO; 6 h, pH 7.4).
For CC(C)(Sc1ccncc1-c1ccc(C#N)c2ccccc12)C(=O)OC1OC(C(=O)O)C(O)C(O)C1O (centres unmarked), “fraction excreted unchanged” read ~63% (urine; oral, 15 mg, severe renal impairment; baseline: normal renal function).
OCc1cn(Cc2ccc(-c3noc(-c4ccc(OCC[18F])c(C(F)(F)F)c4)n3)cc2)nn1 gave a tissue uptake of 0.69 ± 0.08 %ID/g (female Lewis rat, thymus; intravenous, 5 min).
NS(=O)(=O)c1ccc(N2N=C(C(F)(F)F)C(O)C2c2ccc(F)cc2F)cc1 (centres unmarked) — result for “metabolite formation rate”: 87.7 pmol/min/mg (substrate; male Wistar rat liver microsomes; 20 µM, pH 7.4, mean of 0-90 and 0-60 min).

A few entries again:
The uptake of O=[11C](OC(C(F)(F)F)C(F)(F)F)N1CCC(CNS(=O)(=O)c2ccc(Cl)cc2)CC1 is reported as 0.93 SUV (PET; rhesus monkey, male, occipital cortex; iv, 3.71 mCi).
O=C(NCCCN(CCCCN(CCCNC(=O)c1cccc(=O)n1[O-])C(=O)c1cccc(=O)n1[O-])C(=O)c1cccc(=O)n1[O-])c1cccc(=O)n1[O-].[89Zr+4] has an intact complex of 89.8 ± 5.4% (radio-TLC; PBS; 1 d, pH 7.4, 37 °C, together with: Fe^3+ 10-fold excess).
CN(O)C(=O)CCC(=O)NCCCN(CCCCN(CCCNC(=O)CCC(=O)N(C)O)C(=O)CCC(=O)N(C)O)C(=O)CCC(=O)N(C)O.[89Zr]: “intact compound remaining” 62% (aqueous solution; 7 d, pH 7.2, 37 °C, transmetalation, together with: FeCl3 100-fold excess).
CC[C@H](C)[C@@H]1NC(=O)[C@H]([C@@H](C)O)NC(=O)[C@H](Cc2ccc(O)cc2)NC(=O)[C@H](CCCNC(=N)N)NC(=O)[C@@H]2CCCN2C(=O)[C@H]2CCCN2C(=O)[C@H]([C@@H](C)O)NC(=O)[C@H](C(C)C)NC(=O)[C@H](C(C)C)NC(=O)[C@H](CCCCN)NC(=O)[C@H](CO)NC(=O)[C@@H](CCC(N)=O)NC(=O)[C@H](CO)NC(=O)[C@H](Cc2ccc(O)cc2)NC(=O)[C@H](CO)NC(=O)[C@H](Cc2ccc(O)cc2)NC(=O)[C@@H]2CCCN2C(=O)[C@H](CO)NC(=O)[C@H](CC(C)C)NC(=O)[C@H](CC(C)C)NC(=O)[C@H](C)NC(=O)[C@H](C)NC1=O: “apparent molecular weight” ≥ 25 kDa (self-assembled oligomers, PICUP cross-linking and SDS-PAGE; PBS; 36 µM, 1 h, 37 °C).
